Experimental data from different studies.
A part holds a random share of what one study measured.

Series 1
Target: Prothrombin, mature alpha-thrombin (F2, Homo sapiens, UniProt P00734)
Method: aptamer microarray, sandwich
Form: DNA with 2'F-ANA
Medium: in vitro
Tested at: 200 nM
Setting: whole 15-mer aptamer, many near background
With: Cy3 exosite-II aptamer, 400 nM
Reading: higher = stronger binding
Sequence: GGTTGGTGTGGTTGG
Modification | mean fluorescence intensity [a.u.]
2'F-ANA at 1 2 3 4 5 6 11 13 14 15 | 52.8
2'F-ANA at 1 2 3 4 7 8 9 10 11 12 13 | 76.5
2'F-ANA at 1 4 7 9 11 15 | 112
2'F-ANA at 2 4 10 13 14 15 | 64.9
2'F-ANA at 1 2 3 5 7 8 9 13 14 15 | 49
2'F-ANA at 1 4 6 7 8 10 11 12 14 | 49
2'F-ANA at 2 3 4 5 9 10 11 12 13 15 | 56.6
2'F-ANA at 1 3 10 11 12 14 15 | 61.1
2'F-ANA at 1 2 3 4 5 6 7 9 10 13 14 | 50.4
2'F-ANA at 1 6 8 9 11 12 13 14 15 | 64.8
2'F-ANA at 1 2 3 4 5 10 | 47.8
2'F-ANA at 2 3 4 12 13 | 751
2'F-ANA at 1 9 10 11 12 15 | 65.4
2'F-ANA at 1 3 5 7 13 15 | 57
2'F-ANA at 1 2 4 6 9 11 12 13 | 132
2'F-ANA at 1 2 3 6 9 11 13 14 | 60.1
2'F-ANA at 1 2 3 4 5 7 10 12 13 14 15 | 47
2'F-ANA at 1 3 4 8 10 11 13 14 | 51
2'F-ANA at 2 3 4 6 7 8 9 10 12 14 | 178
2'F-ANA at 1 3 5 7 8 9 11 13 14 15 | 50.8
2'F-ANA at 2 3 6 8 11 14 15 | 342
2'F-ANA at 1 2 3 8 9 11 12 15 | 375
2'F-ANA at 1 2 3 5 7 8 9 10 12 14 | 50.5
2'F-ANA at 2 4 5 6 11 13 | 84.8

Series 2
Target: RNA binding protein fox-1 homolog 2, RRM domain, GST-SBP tag (RBFOX2, Homo sapiens, UniProt O43251-10, residues 100-194)
Method: RNA Bind-n-Seq
Form: RNA
Medium: in vitro
Tested at: 365 nM
Setting: natural RNA segment, single round, ends assumed
Baseline: no-protein control
Reading: higher = stronger binding
Target sequence (chain): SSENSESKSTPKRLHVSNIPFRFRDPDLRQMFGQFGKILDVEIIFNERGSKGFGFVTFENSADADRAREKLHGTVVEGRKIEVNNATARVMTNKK
Sequence | RBNS enrichment (R)
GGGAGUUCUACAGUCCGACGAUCCCAAAGCCGCCUUAGUGAAGAGCAGUAUGUUCUGAUCUGCGAUCUGCGGCGGCGGCGGGCGAGCCCGGGGCCCGGGCUGGCGAGUGGGCGAGUGGGUAGACCCAAGGCUAUGGAAUUCUCGGGUGCCAA | 0.292
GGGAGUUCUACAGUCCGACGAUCGCAAGGCAUUCGUUUCCUUACUUUGGAAUAGUAUUUAUGUUGAAUUGUAAACCCACAGUUGUAAGCUUAGUGACUUCACAUGUAUGUAGCAUUGGUACUGGUCUGAGCCAUGGAAUUCUCGGGUGCCAA | 2.99
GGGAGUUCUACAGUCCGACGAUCGGCCAGCUGAGUCCAGGACCCUCUCCAGCCCUAUCCCCAUCAAUAAAACUCUGUUUACAUCCACCGGCCCCUUGACUCUGGGUCAGCUGUUUGUUGGGGGUGAUUGGAAAUGGAAUUCUCGGGUGCCAA | 0.277
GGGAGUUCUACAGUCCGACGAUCCUGCUUUGAUGUAAAACCACAGGUGUGUCGAGGCAGAGGCUGCAGUCCUCUGUGCGCACAGUAGGCCUUUGCUUUACCAUUCAACAGUUCUGACUUAGGCAUGUGUAGAUUGGAAUUCUCGGGUGCCAA | 1.12
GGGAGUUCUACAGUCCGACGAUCCCUUUCUAGUUGCCAUGGAAAAGCUGUUGUUUGAAUACUUGUGUCAGCUAGAGAAAGCACUGCCUCCAGUCAGAGCACAAGAGGUUGUUGAGAAAGAAACACUUUAAGGGUGGAAUUCUCGGGUGCCAA | 0.558
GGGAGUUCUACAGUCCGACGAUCAAAAAUUUGAACACUGGCUAAAGAUAAUUGCUAUUUAUUUUUACAAGAAGUUUAUUCUCAUUUGGGAGAUCUGGUGAUCUCCCAAGCUAUCUAAAGUUUGUUAGAUAGCUUGGAAUUCUCGGGUGCCAA | 0.803
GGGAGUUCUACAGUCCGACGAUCAUCCUGUGAACUGAGAGCGAGGAGCAGUGUAGGAAAUUGCAAUGUGUGGUUCAUGCAUUGUCUUUGAUAUCCUAGACGGAGCUCAGCUUAGAACUUUCCAAGCGCCAGUGUGGAAUUCUCGGGUGCCAA | 0.22
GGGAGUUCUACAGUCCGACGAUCAUUUUGGCUUUGACUCUGCCAUUUCUGAAAUGUGGGGGAGGAUGGAGGCAGCUGACCUCUCCAGUUGCUGUGUUGUAUUCCUACCCAAUUUCCUGGGCAGUUGAUGCAUCUGGAAUUCUCGGGUGCCAA | 1.05

Series 3
Target: TAR DNA-binding protein 43, full length, His tag (TARDBP, Homo sapiens, UniProt Q13148, residues 1-414)
Method: RNA Bind-n-Seq
Form: RNA
Medium: in vitro
Tested at: 20 nM
Setting: 6-mer, flanks averaged, single round
With: 150 mM LiCl
Baseline: input library
Reading: higher = stronger binding
Sequence | 6-mer enrichment (R)
CCAUUA | 0.927
GCAAUA | 0.889
CGGAUU | 0.907
GUUAGG | 1.16
AGGAAG | 1
UCAACG | 0.785
UGCGUC | 1.06
UCAUUA | 0.934
CAACUA | 0.824
CCUAAU | 0.922
UGGAAG | 1.09
UUGGCA | 1
CCCGCG | 0.991
GUCCAC | 0.9
UGGAUG | 1.26
GUGCCC | 1.13
GGGCAU | 1.02
GAGGAG | 1.19
CCUGUC | 0.905
UCUUCU | 0.931
CAGAGA | 0.864
AACUGU | 0.91
AGCGAU | 0.87
ACAGGC | 0.876

Series 4
Target: Histone acetyltransferase KAT6A, winged helix 2, GST fusion (KAT6A, Homo sapiens, UniProt Q92794, residues 85-181)
Method: protein binding microarray
Form: double-stranded DNA, one strand shown
Medium: in vitro
Tested at: not given
Setting: 8-mer, flanks averaged, mean of 2 arrays, mostly near background
Baseline: not given
Reading: higher = stronger binding
Construct (chain): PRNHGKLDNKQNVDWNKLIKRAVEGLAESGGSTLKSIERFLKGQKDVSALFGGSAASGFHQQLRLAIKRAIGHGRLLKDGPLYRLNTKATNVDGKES
Sequence | E-score
CTGCGCAC | 0.16
CTTCGAAA | -0.00346
ATATGTCA | -0.0406
CAAATTGA | -0.0483
GGGCCGAA | 0.0791
GATCAATA | -0.0516
CGGCGATC | 0.292
AACAGCAA | -0.0125
GGGGATAA | -0.196
ATTATTCC | 0.0406
ATCCAGGC | 0.027
TCTGCCAA | -0.0999
ATGCATAA | -0.155
ATACCAGC | -0.125
GATTCTAC | -0.0437
TCGACAGA | -0.0889
GCTAGCGA | 0.0569
GAACCGCA | 0.248
TACCACTA | -0.0647
CGAAGTCC | -0.0627

Excerpt of the above (series 1):
Modification | mean fluorescence intensity [a.u.]
2'F-ANA at 1 3 10 11 12 14 15 | 61.1
2'F-ANA at 1 2 3 4 5 6 7 9 10 13 14 | 50.4
2'F-ANA at 1 6 8 9 11 12 13 14 15 | 64.8
2'F-ANA at 1 2 3 4 5 10 | 47.8
2'F-ANA at 2 3 4 12 13 | 751
2'F-ANA at 1 9 10 11 12 15 | 65.4
2'F-ANA at 1 3 5 7 13 15 | 57
2'F-ANA at 1 2 4 6 9 11 12 13 | 132
2'F-ANA at 1 2 3 6 9 11 13 14 | 60.1
2'F-ANA at 1 2 3 4 5 7 10 12 13 14 15 | 47
2'F-ANA at 1 3 4 8 10 11 13 14 | 51
2'F-ANA at 2 3 4 6 7 8 9 10 12 14 | 178
